Experimental data pooled from the literature.
Numbered parts are unrelated; each lists some results of a single study. Changes are numbered by the printed parent chain.

Set 1
Target: Interferon regulatory factor 7, full length, phosphomimetic (IRF7, Homo sapiens, UniProt Q92985, residues 1-503, S471D/S472D/S475D/S476D/S477D/S483D/S484D/S487D)
Technique: protein-binding microarray
Form: double-stranded DNA, one strand shown
Matrix: in vitro
Tested at: 2200 nM top
Setting: 60-bp whole probe
Together with: salmon DNA 0.4 mg/ml
Reference: random background probes
Reading: higher = stronger binding
Shared flanks, not repeated: GCCTAGCAC … GTCTTGATTCGCTTGACGCTGCTG
Construct (chain): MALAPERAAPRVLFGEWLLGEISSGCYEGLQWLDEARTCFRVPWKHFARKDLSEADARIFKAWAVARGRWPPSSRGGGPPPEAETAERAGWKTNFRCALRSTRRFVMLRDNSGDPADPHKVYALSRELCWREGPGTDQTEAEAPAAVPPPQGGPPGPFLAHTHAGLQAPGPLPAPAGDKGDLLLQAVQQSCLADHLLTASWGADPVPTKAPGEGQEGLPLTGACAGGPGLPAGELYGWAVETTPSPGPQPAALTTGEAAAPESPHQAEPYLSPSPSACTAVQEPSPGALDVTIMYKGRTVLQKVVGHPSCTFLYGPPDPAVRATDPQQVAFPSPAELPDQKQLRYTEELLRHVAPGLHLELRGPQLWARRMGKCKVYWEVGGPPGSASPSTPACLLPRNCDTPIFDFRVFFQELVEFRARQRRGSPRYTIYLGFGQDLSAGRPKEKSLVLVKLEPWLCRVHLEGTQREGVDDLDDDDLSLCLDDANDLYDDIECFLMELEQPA
| Oligonucleotide | fitted relative affinity [z-score] |
| --- | --- |
| GGGCATTTGGAAAATGTAAACGTGCTA | -0.678 |
| TCTCTTTCCACTTGTCTTTTCGTGCTA | 5.89 |
| GACGGTATCGGAGTGGGGACGTGCTAG | -0.679 |
| TCATCTTTATGCACTCTCACTGTGCTA | 1.25 |
| TTAGGTCTCATTCTCCTTTAGTGCTAG | 1.02 |
| TTAGGTTTCGGACTGGGTAAGTGCTAG | 3.45 |
| GACGATATCGGGCCTGGAGACGTGCTA | -0.45 |
| TTAGGACTAGACTATCGGTTAGTGCTA | -0.302 |
| TTAGATATCAGTTTCGATTGGTGCTAG | 8.28 |
| TCAGGTTTCACTTTAAAACTGTGCTAG | 4.78 |
| TTTGCTCTGTGCATAGTTCTGTGCTAG | 0.922 |
| GACGGTAGCGACTTTCGGGACGTGCTA | 2.48 |
| TTAGATTTCAGACTGGATAAGTGCTAG | -0.0543 |
| GACGATCTCAGTCTCGACACGTGCTAG | 0.241 |
| TTAGATATCGGGTACCGATTAGTGCTA | -0.385 |
| GACGGTCTCCTTTTGCTGACGTGCTAG | 1.36 |
| TTAGGACTGGACACTGGGTTTGTGCTA | -0.542 |
| TTAGGACTTGGGTTTCGGTTAGTGCTA | 3.26 |
| GACGATATCAGTATCGCGACGTGCTAG | 0.229 |

Set 2
Target: ABI1, truncated, D143A, DHFR fusion (Arabidopsis thaliana)
Technique: DHFR PCA, deep sequencing
Matrix: yeast
Setting: methotrexate growth selection, single substitutions
Together with: (+)-ABA 4.8 µM
Reference: wild-type fitted maximum
Reading: higher = stronger binding
Starting sequence: PYL1, truncated, DHFR fusion (Arabidopsis thaliana); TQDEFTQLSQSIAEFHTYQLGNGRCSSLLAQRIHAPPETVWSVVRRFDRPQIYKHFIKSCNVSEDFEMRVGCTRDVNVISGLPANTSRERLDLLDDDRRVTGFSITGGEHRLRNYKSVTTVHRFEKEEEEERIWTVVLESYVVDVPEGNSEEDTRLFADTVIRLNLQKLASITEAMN; partner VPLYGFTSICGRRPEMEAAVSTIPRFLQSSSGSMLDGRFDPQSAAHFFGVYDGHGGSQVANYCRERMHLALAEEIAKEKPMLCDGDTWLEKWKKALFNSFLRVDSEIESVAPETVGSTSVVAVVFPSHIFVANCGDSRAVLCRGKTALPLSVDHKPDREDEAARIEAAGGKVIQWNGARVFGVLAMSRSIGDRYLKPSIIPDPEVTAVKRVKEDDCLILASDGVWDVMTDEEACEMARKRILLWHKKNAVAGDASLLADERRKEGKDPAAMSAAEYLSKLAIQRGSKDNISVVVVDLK
| Change | relative binding score [%] |
| --- | --- |
| I57G | -1.5 |
| E14W | 5.67 |
| G81A | 3.43 |
| A30Y | 66.2 |
| M68F | 52.2 |
| I12C | 14.6 |
| D65G | 71.1 |
| T86A | 44.6 |
| G107D | 38.3 |
| R132F | 67.8 |
| Y18D | 16.3 |
| N177G | 83.1 |
| Q51F | 23.5 |
| N85F | 65.1 |
| H110D | 14.1 |
| A13S | 67.8 |
| D144Q | 5.89 |
| A175R | 76.4 |

Set 3
Target: Histone acetyltransferase KAT6A, winged helix 2, GST fusion (KAT6A, Homo sapiens, UniProt Q92794, residues 85-181)
Technique: protein binding microarray
Form: double-stranded DNA, one strand shown
Matrix: in vitro
Tested at: not given
Setting: 8-mer, flanks averaged, mean of 2 arrays, mostly near background
Reference: not given
Reading: higher = stronger binding
Residues (chain): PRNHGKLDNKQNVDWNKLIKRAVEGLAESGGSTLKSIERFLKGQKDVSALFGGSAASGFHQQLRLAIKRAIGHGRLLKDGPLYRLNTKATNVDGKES
| Oligonucleotide | E-score |
| --- | --- |
| CCTAACTC | -0.00661 |
| CATGGATA | -0.0215 |
| CGAGTTAG | 0.00366 |
| CAAAAGCG | 0.111 |
| CTAAGTTA | 0.0337 |
| CATTGGAA | 0.0369 |
| AGTTAATC | 0.157 |
| CGTCTAGA | -0.101 |
| ACCCGGGG | 0.111 |
| ATGCGAGG | -0.0602 |
| CAACGGTA | -0.266 |
| GATGGATA | -0.0116 |
| TATCCTGA | 0.000335 |
| ATTTGGGA | 0.0048 |
| GCTACCCA | -0.136 |
| CACATTCG | -0.00053 |
| GAAAGCGC | 0.203 |
| CACTCACA | -0.0452 |
| GCTGCCTA | -0.0336 |
| GGGTCGAC | 0.0265 |
| GAAACTTA | -0.0465 |
| CCCATAGG | 0.0396 |
| CATTATTA | -0.0155 |
| ACGGTGTG | -0.0334 |
| ACTTCGGG | 0.0867 |

Set 4
Target: CCNE2, cyclin fold, Cln2 fusion (human)
Technique: yeast growth competition, sequencing
Matrix: yeast
Setting: strong parent motif
Reference: not given
Reading: higher = stronger binding
Starting sequence: RBL1 docking peptide (human); GSAKRRLFGEDPP; partner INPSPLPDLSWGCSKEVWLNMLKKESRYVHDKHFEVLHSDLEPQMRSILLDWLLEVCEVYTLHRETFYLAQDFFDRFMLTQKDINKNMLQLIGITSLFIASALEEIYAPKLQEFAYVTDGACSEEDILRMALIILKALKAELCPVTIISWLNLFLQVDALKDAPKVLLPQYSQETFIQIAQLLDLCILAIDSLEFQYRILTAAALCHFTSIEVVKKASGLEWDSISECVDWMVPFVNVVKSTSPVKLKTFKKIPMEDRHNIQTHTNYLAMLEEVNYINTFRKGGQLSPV
| Change | normalised enrichment score |
| --- | --- |
| GSAKRRLFVEDPP [G9V] | 6.29 |
| LSAKRRLFGEDPP [G1L] | 5.67 |
| GSAKRRLIGEDPP [F8I] | 0.616 |
| GSAKRCLFGEDPP [R6C] | 1.03 |
| GHAKRRLFGEDPP [S2H] | 4.64 |
| GSAKRNLFGEDPP [R6N] | 1.83 |
| QSAKRRLFGEDPP [G1Q] | 4.09 |
| GSAKRRLFGEDEP [P12E] | 5.09 |
| GSAKRRLFGEMPP [D11M] | 3.63 |
| GSAKRRLFGEDPM [P13M] | 3.92 |
| GSAKRRLFGEDPE [P13E] | 3.07 |
| GVAKRRLFGEDPP [S2V] | 3.01 |
| GSAKRRLFGEDPC [P13C] | 4.11 |
| GSAKRRLFGDDPP [E10D] | 4.85 |
| GSAKRRLFGEDPT [P13T] | 4.55 |
| GSAKRRLFGEDQP [P12Q] | 3.78 |
| GSAKRMLFGEDPP [R6M] | 1.25 |
| GSAKRRLFGEDTP [P12T] | 4.66 |
| GSAKRTLFGEDPP [R6T] | 0.934 |
| GSAKRRLFYEDPP [G9Y] | 4.74 |
| GSAKPRLFGEDPP [R5P] | 0.147 |
| GSAKRHLFGEDPP [R6H] | 1.18 |
| GSAKRRLFGEPPP [D11P] | 3.39 |
| GSAKRRLFGENPP [D11N] | 3.88 |
| GSAKRRLFGGDPP [E10G] | 3.06 |

Some of these lines once more (set 3):
| Oligonucleotide | E-score |
| --- | --- |
| GATGGATA | -0.0116 |
| CTAAGTTA | 0.0337 |
| ACGGTGTG | -0.0334 |
| GGGTCGAC | 0.0265 |
| CCTAACTC | -0.00661 |
| ACCCGGGG | 0.111 |
| CAAAAGCG | 0.111 |
| CATTGGAA | 0.0369 |
| CATTATTA | -0.0155 |
| CACATTCG | -0.00053 |
| ACTTCGGG | 0.0867 |
